Published values of several laboratories.
A part holds a random share of what one study measured. Positions count from the first letter of the parent shown.

Set 1
Target: CCND1, cyclin fold, Cln2 fusion (human)
Method: yeast growth competition, sequencing
Sample: yeast
Notes: weak parent motif
Reference: not given
Direction: higher = stronger binding
Endpoint: normalised enrichment score
Starting sequence: PKMYT1 docking peptide (human); SFEPRNLLSLFED; partner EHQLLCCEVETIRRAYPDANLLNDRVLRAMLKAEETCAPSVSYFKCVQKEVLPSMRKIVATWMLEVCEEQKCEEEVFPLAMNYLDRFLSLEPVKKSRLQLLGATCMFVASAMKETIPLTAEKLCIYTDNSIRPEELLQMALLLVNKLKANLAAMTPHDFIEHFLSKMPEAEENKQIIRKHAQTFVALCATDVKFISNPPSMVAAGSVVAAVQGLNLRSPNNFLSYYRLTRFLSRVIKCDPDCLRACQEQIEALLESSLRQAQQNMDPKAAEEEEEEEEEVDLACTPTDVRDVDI
Substitution = E12V; value = 1.36
Substitution = S9K; value = 1.32
Substitution = N6P; value = 1.39
Substitution = P4D; value = 1.49
Substitution = F11W; value = 1.75
Substitution = L10N; value = 1.17
Substitution = L8I; value = 0.909
Substitution = L7N; value = 0.8
Substitution = S9Q; value = 0.901
Substitution = L8C; value = 0.735
Substitution = R5G; value = 1.69
Substitution = L8S; value = 0.3
Substitution = R5S; value = 1.23
Substitution = E3Y; value = 0.656
Substitution = S9P; value = 0.238

Set 2
Target: ABI1, truncated, D143A, DHFR fusion (Arabidopsis thaliana)
Method: DHFR PCA, deep sequencing
Sample: yeast
Notes: methotrexate growth selection, single substitutions
With: (+)-ABA 0.032 µM
Reference: wild-type fitted maximum
Direction: higher = stronger binding
Endpoint: relative binding score
Starting sequence: PYL1, truncated, DHFR fusion (Arabidopsis thaliana); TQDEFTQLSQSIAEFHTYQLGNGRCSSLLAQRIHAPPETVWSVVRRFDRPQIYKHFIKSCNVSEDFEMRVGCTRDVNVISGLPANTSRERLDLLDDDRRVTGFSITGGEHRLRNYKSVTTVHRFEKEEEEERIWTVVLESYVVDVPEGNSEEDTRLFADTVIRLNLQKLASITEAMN
Substitution = V40R; value = 3.63%
Substitution = L166Y; value = -2.93%
Substitution = L94A; value = 1.81%
Substitution = E129M; value = 13.6%
Substitution = T120K; value = 1.34%
Substitution = D96R; value = -1.15%
Substitution = P146L; value = 26.6%
Substitution = T39W; value = 1.13%
Substitution = P36W; value = 3.22%
Substitution = D65S; value = 8.66%
Substitution = V100R; value = 2.34%
Substitution = N22D; value = 46.3%
Substitution = I133N; value = 42.3%
Substitution = T154H; value = -3.77%
Substitution = R163N; value = -9.51%
Substitution = L94W; value = 12.5%
Substitution = N77F; value = 18.7%
Substitution = L20P; value = 32.5%
Substitution = W41Q; value = 0.269%
Substitution = I33T; value = -4.55%
Substitution = E109P; value = 2.64%

Set 3
Target: BIRC6 UBC core domain (UniProt Q9NR09)
UniProt Q9NR09, sequence (whole entry, looked up): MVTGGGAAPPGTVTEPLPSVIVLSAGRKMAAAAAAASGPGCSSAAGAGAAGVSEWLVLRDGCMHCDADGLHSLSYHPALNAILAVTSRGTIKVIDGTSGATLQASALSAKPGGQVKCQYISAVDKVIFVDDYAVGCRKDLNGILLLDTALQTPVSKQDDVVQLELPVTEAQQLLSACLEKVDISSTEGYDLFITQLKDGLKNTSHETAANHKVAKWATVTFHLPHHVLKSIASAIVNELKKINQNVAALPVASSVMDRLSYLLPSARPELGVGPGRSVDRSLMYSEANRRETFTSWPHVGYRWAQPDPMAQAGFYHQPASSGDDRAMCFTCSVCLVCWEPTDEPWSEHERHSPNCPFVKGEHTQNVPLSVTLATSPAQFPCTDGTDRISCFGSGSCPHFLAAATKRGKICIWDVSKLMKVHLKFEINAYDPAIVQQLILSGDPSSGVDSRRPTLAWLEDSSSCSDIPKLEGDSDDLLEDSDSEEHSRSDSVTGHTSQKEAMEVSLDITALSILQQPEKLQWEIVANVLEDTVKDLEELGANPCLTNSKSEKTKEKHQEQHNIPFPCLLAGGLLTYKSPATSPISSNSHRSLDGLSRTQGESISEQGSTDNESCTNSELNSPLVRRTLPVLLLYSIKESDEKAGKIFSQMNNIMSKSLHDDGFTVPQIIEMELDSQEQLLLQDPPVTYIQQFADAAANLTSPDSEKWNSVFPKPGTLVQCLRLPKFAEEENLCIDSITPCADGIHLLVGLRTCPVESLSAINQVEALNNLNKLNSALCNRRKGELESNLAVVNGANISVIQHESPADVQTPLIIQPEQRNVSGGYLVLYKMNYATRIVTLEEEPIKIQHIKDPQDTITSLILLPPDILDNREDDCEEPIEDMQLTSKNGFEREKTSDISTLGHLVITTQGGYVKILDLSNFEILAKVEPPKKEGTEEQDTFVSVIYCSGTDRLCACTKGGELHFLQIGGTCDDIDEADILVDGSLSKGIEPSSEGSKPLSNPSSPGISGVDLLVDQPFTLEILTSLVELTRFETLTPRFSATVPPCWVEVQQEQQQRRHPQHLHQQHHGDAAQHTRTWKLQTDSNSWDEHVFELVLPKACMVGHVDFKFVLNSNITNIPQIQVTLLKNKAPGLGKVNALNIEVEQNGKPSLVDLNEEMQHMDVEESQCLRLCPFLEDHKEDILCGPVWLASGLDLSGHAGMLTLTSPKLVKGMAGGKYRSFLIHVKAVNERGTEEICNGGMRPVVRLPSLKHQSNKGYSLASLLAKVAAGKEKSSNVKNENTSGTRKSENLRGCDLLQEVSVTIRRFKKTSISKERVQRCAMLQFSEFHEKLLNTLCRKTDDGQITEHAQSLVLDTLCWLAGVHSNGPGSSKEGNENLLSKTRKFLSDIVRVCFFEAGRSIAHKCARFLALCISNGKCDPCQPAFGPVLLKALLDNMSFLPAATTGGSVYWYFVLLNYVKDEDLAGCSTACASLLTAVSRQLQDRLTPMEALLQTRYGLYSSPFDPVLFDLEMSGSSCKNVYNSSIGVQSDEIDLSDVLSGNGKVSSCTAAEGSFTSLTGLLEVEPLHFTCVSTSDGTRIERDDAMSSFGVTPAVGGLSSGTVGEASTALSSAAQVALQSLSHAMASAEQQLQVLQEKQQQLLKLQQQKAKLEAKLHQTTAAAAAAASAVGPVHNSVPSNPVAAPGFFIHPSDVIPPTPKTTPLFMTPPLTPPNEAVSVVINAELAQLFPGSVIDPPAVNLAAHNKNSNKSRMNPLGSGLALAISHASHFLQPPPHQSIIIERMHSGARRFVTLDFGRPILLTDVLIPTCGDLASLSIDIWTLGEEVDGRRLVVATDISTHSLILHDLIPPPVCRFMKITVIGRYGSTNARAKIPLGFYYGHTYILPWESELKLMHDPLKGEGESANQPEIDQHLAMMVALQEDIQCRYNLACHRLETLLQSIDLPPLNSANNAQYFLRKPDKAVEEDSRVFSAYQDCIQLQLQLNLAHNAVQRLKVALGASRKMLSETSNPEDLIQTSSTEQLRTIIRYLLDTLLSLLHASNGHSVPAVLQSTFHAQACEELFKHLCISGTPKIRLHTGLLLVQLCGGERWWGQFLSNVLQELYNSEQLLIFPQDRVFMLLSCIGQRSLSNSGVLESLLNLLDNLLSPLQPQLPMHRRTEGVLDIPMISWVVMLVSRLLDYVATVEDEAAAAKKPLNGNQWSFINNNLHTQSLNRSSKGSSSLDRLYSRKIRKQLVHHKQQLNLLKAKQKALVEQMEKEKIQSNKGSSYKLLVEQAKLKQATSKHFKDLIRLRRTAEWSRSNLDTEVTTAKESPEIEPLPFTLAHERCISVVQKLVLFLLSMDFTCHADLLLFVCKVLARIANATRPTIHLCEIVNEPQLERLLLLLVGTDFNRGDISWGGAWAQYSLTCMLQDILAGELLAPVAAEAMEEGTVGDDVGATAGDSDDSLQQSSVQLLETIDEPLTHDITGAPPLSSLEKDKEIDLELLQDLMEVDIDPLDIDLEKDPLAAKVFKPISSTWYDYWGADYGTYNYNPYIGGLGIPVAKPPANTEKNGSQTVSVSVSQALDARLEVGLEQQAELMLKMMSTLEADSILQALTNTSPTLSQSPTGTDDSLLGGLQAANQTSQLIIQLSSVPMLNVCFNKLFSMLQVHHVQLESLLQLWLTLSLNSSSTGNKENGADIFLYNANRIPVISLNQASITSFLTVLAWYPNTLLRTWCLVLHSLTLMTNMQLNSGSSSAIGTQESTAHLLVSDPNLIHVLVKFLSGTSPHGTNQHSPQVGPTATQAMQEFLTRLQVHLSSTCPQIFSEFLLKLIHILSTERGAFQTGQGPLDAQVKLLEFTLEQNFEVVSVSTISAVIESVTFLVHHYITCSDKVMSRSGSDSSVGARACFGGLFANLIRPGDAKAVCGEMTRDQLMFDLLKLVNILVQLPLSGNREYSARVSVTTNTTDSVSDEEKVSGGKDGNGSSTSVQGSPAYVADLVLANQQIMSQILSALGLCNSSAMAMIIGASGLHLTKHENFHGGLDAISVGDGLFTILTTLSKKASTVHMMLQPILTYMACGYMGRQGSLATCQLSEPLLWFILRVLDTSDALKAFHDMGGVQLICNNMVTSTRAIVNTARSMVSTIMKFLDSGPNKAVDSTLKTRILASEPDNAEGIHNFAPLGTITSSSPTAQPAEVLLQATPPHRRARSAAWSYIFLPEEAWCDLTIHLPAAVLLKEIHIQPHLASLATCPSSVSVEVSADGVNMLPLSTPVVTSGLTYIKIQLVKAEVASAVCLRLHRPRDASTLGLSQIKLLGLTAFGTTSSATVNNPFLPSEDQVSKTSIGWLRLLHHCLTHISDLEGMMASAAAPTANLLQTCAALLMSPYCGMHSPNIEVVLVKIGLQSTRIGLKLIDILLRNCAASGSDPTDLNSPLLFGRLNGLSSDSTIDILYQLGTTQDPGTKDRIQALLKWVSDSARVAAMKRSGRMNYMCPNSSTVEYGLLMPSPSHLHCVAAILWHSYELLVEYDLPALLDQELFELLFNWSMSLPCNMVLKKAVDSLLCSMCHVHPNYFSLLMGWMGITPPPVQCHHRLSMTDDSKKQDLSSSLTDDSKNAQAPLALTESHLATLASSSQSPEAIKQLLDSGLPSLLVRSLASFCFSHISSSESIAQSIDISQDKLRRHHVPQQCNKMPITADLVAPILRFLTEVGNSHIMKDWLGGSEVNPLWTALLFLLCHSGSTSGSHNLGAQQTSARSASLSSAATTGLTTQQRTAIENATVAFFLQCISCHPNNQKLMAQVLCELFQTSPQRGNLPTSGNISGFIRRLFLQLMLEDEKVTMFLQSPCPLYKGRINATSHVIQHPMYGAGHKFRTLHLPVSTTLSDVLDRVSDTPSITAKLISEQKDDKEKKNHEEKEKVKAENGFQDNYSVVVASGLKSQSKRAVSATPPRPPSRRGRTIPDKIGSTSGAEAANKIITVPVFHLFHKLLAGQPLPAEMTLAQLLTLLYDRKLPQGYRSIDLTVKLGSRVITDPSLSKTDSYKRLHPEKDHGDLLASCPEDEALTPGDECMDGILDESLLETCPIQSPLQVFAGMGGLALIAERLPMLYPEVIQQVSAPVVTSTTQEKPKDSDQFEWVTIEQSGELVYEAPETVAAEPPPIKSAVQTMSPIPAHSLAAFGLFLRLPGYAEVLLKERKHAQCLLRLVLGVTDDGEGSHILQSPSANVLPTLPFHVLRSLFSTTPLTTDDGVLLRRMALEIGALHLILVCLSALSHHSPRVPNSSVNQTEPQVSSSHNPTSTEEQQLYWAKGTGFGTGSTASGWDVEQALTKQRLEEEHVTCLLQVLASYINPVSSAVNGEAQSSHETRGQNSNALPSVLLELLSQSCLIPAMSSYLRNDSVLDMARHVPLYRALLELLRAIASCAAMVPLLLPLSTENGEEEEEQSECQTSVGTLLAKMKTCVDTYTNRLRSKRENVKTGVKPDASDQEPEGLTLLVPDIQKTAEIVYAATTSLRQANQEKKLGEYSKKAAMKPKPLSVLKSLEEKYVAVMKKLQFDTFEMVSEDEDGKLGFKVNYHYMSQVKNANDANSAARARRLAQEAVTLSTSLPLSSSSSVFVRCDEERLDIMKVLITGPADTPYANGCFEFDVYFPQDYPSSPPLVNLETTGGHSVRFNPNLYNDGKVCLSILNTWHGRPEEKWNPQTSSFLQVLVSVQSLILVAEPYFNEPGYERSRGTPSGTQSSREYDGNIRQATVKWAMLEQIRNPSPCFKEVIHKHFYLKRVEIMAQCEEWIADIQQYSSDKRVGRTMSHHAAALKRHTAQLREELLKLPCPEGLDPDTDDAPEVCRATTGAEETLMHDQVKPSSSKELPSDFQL
Method: yeast two-hybrid
Sample: yeast
Notes: mostly zero background
Reference: not given
Direction: higher = stronger interaction
Endpoint: lacZ reporter activity
B1: TRIM31 RING domain (UniProt Q9BZY9); chain FVNKLQEEVICPICLDILQKPVTIDCGHNFCLKCITQIGETSCGFFKCPLCKTSVRKNAIRF
B2: RNF183 RING domain (UniProt Q96D59); chain EQQGRELEAECPVCWNPFNNTFHTPKMLDCCHSFCVECLAHLSLVTPARRRLLCPLCRQPTVLASGQP
B3: TRIM60 RING domain (UniProt Q495X7); chain ALVNLQEESSCPICLEYLKDPVTINCGHNFCRSCLSVSWKDLDDTFPCPVCRFCFPYKSFRR
B4: TRIM37 RING domain (UniProt O94972); chain SVESIAEVFRCFICMEKLRDARLCPHCSKLCCFSCIRRWLTEQRAQCPHCRAPLQLRELVN
B5: TRIM54 RING domain (UniProt Q9BYV2); chain SMDNLEKQLICPICLEMFSKPVVILPCQHNLCRKCANDVFQASNPLWQSRGSTTVSSGGRFRCPSCRHEVVLDRHGV
B6: RNF2 RING domain (UniProt Q99496); chain SPRSLHSELMCPICLDMLKNTMTTKECLHRFCADCIITALRSGNKECPTCRKKLVSKRSLR
B7: TRIM26 RING domain (UniProt Q12899); chain PLRSLEEEVTCSICLDYLRDPVTIDCGHVFCRSCTTDVRPISGSRPVCPLCKKPFKKENIRP
B8: RNF166 RING domain (UniProt Q96A37); chain GDSGLEAQYTCPICLEVYHRPVAIGSCGHTFCGECLQPCLQVPSPLCPLCRLPFDPKKVDK
B9: MYCBP2 RING domain (UniProt O75592); chain TSLKQDADDMCMICFTEALSAAPAIQLDCSHIFHLQCCRRVLENRWLGPRITFGFISCPICKNKINHIVLKD
Molecule = YPEEVDDDLICHICLQALLDPLDTPCGHTYCTLCLTNFLVEKDFCPMDRKPLVLQHCKK (LNX1 RING domain (UniProt Q8TBB1)); value = 0
Molecule = QVQSRTKIEECVVCSDKKAAVLFQPCGHMCACENCANLMKKCVQCRAVVERRVPFI (MIB1 RING domain (UniProt Q86YT6)); value = 0
Molecule = MNDVLENELQCIICSEYFIEAVTLNCAHSFCSYCINEWMKRKIECPICRKDIKSKTYSL (RNF8 RING domain (UniProt O76064)); value = 0
Molecule = B1 (TRIM31 RING domain); value = 0
Molecule = B2 (RNF183 RING domain); value = 0
Molecule = KPDKMEETLTCIICQDLLHDCVSLQPCMHTFCAACYSGWMERSSLCPTCRCPVERICKNH (CHFR RING domain (UniProt Q96EP1)); value = 0
Molecule = B3 (TRIM60 RING domain); value = 0
Molecule = YCEMGSTFQLCKICAENDKDVKIEPCGHLMCTSCLTAWQESDGQGCPFCRCEIKGTEPII (CBLB RING domain (UniProt Q13191)); value = 0
Molecule = B4 (TRIM37 RING domain); value = 0
Molecule = B5 (TRIM54 RING domain); value = 0
Molecule = LDAASGHPLVCPLCHGQYERPCLLDCFHDFCTGCLRGRATDGRLSCPLCQHQTLVKGPSG (Rnf207 RING domain (UniProt Q3V3A7)); value = 0
Molecule = B6 (RNF2 RING domain); value = 0
Molecule = AEADPLGRFTCPVCLEVYEKPVQVPCGHVFCSACLQECLKPKKPVCGVCRSALAPGVRAV (RNF114 RING domain (UniProt Q9Y508)); value = 0
Molecule = B7 (TRIM26 RING domain); value = 0
Molecule = PEELAVNNDDCAICWDSMQAARKLPCGHLFHNSCLRSWLEQDTSCPTCRMSLNIADNNR (AMFR RING domain (UniProt Q9UKV5)); value = 0
Molecule = LGTKLEAKYLCSACRNVLRRPFQAQCGHRYCSFCLASILSSGPQNCAACVHEGIYEEGIS (TRAF2 RING domain (UniProt Q12933)); value = 0
Molecule = B8 (RNF166 RING domain); value = 0
Molecule = B9 (MYCBP2 RING domain); value = 0

Set 4
Target: JUND, bZIP domain (human)
Method: DHFR protein complementation
Sample: yeast
Notes: single substitutions, most at no-binding floor
Reference: wild-type JUN-FOS pair
Direction: higher = stronger binding
Endpoint: binding fitness
Starting sequence: JUN, bZIP domain (human); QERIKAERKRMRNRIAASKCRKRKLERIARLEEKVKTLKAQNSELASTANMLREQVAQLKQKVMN; partner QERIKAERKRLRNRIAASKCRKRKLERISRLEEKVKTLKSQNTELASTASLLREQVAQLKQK
Substitution = S43F; value = -0.834 natural log
Substitution = K36L; value = -0.826 natural log
Substitution = A46Q; value = -0.545 natural log
Substitution = M51S; value = -0.626 natural log
Substitution = S47E; value = -0.326 natural log
Substitution = Q41R; value = -0.825 natural log
Substitution = R53M; value = -1.18 natural log
Substitution = R30L; value = -0.582 natural log
Substitution = S47D; value = -0.512 natural log
Substitution = V35A; value = -1.13 natural log
Substitution = E33A; value = -0.677 natural log
Substitution = T48N; value = -1.08 natural log
Substitution = A29G; value = -0.974 natural log
Substitution = I28C; value = -1.18 natural log
Substitution = A46Y; value = -1.07 natural log
Substitution = Q41I; value = -0.694 natural log
Substitution = E54L; value = -1.03 natural log
Substitution = S47G; value = -0.797 natural log
Substitution = E32V; value = -1.03 natural log

Set 5
Target: RING finger protein unkempt homolog, zinc fingers 1-6, GST-SBP tag (UNK, Homo sapiens, UniProt Q9C0B0, residues 30-357)
Method: RNA Bind-n-Seq
Form: RNA
Sample: in vitro
Tested at: not given
Notes: RNA with constant flanks, human-mouse chimeric sites, ends assumed
Reference: input RNA pool
Direction: higher = stronger binding
Endpoint: bound/input enrichment
Target sequence (chain): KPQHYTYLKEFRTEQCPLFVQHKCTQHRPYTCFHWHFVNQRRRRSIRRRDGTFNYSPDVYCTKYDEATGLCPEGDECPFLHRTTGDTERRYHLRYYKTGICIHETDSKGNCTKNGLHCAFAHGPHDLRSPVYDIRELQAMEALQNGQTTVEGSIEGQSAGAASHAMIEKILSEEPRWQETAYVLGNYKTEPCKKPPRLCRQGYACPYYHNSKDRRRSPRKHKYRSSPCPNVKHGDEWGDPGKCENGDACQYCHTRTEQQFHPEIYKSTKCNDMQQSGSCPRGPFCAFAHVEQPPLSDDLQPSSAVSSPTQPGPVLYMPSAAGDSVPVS
Strand = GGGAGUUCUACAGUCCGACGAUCUAAGUUAAGCUUUUAAUUAAGUUAUUUUCUUAACAUUUUUAUAUUGCCAUGUUUAUUUUGUUUGGGUAAUUUGGUUCAUUAAGUACAUAGCUAAGGUAAUGAACAUCUUUUUCAGUAAUUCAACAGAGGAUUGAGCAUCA; value = 0.4 ratio
Strand = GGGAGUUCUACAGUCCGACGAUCUCUGGUCACACUCGUGUGUAUGGUGUUUGCUUUGUUGACACUUCACUGGGCAAGUUUUUCAUCGGCCAGUUUUCGGAUGAUCGCCAUUGUUCCAGAUUUAGGACGCUAGUGGCUCACUAUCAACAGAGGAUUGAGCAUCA; value = 0.251 ratio
Strand = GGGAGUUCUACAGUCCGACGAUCAAAGAGAAACUAAAGCAAACUGAUUGAAAGAGGAUUGGCAAAGAGAAAUUUCAUAGAAAACUAGGAUUUAUUAGCAAACAUGAGUUAUAUUCCAGAGCGUCUCAGAAACCCCAGCCAAACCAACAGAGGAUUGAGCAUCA; value = 12.7 ratio
Strand = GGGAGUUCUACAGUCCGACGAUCAGAGAUAAGACAUCCAGGAACAUGCGAGGCUCCCGGAUGAAUGGGUUUCCAAGUCCCACUCACAGCGCCCACUGUAGCUUCUACCGAACCAGAACCUUGCAGGCACUAAGUAAUGAGAAGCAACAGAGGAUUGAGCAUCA; value = 0.127 ratio
Strand = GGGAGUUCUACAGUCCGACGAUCGAGCCCAGUCGGCAGUUUGUAAAGGACUCCAUUCGGCUGGUUAAAAGAUGCACCAAACCCGACAGAAAAGAAUUCCAGAAGAUUGCCAUGGCUACAGCUAUAGGAUUUGCUAUCAUGGGACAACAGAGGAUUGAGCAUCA; value = 0.218 ratio
Strand = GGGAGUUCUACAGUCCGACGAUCCUAAUCCCCUUUACUGCUCCCCCACUUCUCAUGGUAAUAACAAAGUCUUAUAUCCCCAUAUUAGCUUUCACUCAGAUGGCUUAUGGAGCCGGUUUCCUAGCUUUCUUGGGAGGGAUCAGACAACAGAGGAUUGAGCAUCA; value = 0.596 ratio
Strand = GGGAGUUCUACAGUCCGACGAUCUUGUGCAAUGAUGCUUGGAGAUGGUUUUGCAAAAGCAGAAAUCGCUGCAAGGUAAUCACAAUAGAUAAAAGUGGUAUUUUAAACCUUUGAAAUAAAUGGAUGUAACUGUACCUUGGUACACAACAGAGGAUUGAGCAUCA; value = 0.873 ratio
Strand = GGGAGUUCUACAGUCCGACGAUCUGACAAGGGCACUGCAGAGCCAUGCCUUUCCUUGACAUACAGAAAAAGCUGGGCAUCAGCCUGGACCGAUGGUUGACAAUCCAGAGUGCAGAACAGCCCUAUAAGAACGCCGCUCGGUGCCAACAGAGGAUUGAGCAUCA; value = 0.0829 ratio
Strand = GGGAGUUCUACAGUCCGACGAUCAAAUCGUGUGUGUCCAAUAUUGAAAGUGCUUUAUCUACACUCCAGUAUGUAAGCAGUAUAGUAGUUUCUUUAGAGAAUAGGUCUGCCAUUGUGAAGUACAAUGCAAGCUUAGUCACUCCACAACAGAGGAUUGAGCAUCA; value = 1.73 ratio
Strand = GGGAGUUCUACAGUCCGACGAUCAAAGAAAAUGGAGAAGUAAAGAUUUUACUGAAAAGUGGGAAGGAGAAACCAAAAACAAAUAUAGAAGACUUACAAAUUAAAAAGGUAAAGAAGAAAAAGAAAAAGAAACACAAAGAGAAUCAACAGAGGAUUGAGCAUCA; value = 16.2 ratio
Strand = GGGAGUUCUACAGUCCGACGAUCGUUGCCAGGUUCCGGUGCCGUUGGGCUCGGUUCUCUCCUGAGCUACGUGUCUCUACGCUCUCAAUCCGCCAUCCAACAAACAUGGAUGAUCAGGUAAAGUUUGUGGAGCCCAGCCGGCAGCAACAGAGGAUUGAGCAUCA; value = 0.0836 ratio
